{"data": "Measured values collected from several papers", "note": "Numbered parts are unrelated; each lists some results of a single study.", "chain of UniProt P42679 (whole entry, looked up)": "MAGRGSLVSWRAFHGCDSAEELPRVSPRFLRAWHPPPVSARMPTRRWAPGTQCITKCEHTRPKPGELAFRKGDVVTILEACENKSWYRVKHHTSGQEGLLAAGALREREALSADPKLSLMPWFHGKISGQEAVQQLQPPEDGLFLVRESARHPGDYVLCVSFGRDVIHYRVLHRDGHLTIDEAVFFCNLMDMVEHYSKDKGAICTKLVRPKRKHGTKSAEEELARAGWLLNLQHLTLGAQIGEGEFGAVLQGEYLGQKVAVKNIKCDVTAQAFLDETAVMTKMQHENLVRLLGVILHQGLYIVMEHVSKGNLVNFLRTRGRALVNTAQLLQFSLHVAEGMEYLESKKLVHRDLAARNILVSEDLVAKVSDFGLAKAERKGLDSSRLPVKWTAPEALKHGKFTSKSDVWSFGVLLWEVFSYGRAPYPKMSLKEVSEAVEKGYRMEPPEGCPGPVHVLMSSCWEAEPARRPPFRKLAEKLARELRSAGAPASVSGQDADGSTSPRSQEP", "chain of UniProt P35916 (whole entry, looked up)": "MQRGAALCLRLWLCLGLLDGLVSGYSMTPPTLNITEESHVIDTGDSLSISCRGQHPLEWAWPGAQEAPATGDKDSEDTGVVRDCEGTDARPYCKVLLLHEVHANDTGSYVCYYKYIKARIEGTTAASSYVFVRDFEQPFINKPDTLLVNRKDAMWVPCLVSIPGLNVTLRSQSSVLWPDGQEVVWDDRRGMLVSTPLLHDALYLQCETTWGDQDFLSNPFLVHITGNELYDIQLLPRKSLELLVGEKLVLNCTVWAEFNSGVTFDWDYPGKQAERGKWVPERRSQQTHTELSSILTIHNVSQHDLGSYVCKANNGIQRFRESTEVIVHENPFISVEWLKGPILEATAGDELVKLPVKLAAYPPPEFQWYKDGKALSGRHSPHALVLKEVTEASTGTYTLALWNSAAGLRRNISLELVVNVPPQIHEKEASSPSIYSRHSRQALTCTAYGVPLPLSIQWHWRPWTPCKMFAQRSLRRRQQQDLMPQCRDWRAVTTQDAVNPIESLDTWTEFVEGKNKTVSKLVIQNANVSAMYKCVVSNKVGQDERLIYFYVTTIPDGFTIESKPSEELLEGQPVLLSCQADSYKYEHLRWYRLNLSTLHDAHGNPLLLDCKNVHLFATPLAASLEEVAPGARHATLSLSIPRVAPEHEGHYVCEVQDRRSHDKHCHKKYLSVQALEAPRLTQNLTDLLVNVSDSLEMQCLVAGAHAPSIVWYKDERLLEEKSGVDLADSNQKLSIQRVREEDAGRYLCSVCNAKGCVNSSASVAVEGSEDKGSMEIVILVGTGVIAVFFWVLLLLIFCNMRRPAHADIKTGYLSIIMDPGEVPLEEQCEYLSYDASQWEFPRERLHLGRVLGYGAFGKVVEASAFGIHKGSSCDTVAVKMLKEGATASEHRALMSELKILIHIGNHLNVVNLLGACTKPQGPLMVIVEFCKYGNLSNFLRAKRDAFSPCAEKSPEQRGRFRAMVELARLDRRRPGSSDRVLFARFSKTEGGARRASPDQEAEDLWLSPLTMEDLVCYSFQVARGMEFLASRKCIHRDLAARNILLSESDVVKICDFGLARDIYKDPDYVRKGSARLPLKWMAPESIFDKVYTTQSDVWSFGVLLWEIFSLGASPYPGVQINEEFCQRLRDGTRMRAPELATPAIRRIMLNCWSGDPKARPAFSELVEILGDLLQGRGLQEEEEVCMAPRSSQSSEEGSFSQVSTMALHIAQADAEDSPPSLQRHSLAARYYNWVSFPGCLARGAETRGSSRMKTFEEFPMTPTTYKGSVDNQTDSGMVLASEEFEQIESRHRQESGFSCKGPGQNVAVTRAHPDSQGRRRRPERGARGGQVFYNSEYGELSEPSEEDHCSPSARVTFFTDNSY", "chain of UniProt Q00526 (whole entry, looked up)": "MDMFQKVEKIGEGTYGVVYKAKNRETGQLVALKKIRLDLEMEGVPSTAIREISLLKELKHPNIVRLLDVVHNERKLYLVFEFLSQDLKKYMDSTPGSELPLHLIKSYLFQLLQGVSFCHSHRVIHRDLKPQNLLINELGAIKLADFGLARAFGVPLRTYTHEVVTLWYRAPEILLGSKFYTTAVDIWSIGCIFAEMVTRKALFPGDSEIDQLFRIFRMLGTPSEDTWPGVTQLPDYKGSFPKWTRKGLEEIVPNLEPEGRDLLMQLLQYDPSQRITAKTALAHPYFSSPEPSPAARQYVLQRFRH", "chain of UniProt P51817 (whole entry, looked up)": "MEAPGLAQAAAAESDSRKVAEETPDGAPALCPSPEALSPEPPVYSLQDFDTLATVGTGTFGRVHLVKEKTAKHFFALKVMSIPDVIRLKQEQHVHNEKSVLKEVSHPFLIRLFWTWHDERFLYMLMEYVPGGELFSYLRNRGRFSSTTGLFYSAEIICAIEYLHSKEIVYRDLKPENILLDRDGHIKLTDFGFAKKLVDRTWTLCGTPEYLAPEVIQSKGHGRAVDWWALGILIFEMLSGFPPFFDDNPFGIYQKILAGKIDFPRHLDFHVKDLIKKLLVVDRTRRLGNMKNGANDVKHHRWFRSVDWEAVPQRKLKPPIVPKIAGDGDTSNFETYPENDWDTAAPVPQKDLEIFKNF", "chain of UniProt O95819 (whole entry, looked up)": "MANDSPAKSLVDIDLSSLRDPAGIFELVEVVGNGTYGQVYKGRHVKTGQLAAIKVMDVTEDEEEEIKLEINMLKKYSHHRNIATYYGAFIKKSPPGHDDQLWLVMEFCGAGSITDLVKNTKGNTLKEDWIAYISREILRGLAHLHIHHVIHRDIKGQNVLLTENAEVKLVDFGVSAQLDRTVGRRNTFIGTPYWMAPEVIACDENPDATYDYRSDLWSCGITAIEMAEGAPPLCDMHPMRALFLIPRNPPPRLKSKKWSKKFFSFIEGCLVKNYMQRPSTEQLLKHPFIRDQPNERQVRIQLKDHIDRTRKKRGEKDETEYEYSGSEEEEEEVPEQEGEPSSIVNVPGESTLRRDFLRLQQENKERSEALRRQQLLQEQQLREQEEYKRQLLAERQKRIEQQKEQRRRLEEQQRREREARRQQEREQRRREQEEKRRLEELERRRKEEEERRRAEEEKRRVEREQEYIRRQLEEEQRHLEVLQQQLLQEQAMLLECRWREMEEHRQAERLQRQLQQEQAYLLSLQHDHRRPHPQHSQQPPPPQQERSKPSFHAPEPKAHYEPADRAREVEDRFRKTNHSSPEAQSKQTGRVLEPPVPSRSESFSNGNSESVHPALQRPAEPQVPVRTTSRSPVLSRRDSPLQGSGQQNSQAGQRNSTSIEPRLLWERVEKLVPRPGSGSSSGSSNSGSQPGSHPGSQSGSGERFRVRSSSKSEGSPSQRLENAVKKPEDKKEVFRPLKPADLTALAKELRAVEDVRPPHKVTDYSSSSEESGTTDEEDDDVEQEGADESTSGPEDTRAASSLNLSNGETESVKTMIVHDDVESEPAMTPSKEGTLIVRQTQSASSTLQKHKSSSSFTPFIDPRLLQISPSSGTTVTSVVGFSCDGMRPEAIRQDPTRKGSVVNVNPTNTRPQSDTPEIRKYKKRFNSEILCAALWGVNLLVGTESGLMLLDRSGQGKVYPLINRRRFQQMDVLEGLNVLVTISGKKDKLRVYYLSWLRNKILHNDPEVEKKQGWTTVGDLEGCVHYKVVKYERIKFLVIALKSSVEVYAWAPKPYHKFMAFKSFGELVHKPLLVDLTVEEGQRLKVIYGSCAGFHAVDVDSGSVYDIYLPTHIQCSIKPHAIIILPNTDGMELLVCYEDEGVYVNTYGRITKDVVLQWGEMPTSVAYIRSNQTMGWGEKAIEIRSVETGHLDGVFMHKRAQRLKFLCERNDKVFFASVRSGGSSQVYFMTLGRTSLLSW", "chain of UniProt Q96RG2 (whole entry, looked up)": "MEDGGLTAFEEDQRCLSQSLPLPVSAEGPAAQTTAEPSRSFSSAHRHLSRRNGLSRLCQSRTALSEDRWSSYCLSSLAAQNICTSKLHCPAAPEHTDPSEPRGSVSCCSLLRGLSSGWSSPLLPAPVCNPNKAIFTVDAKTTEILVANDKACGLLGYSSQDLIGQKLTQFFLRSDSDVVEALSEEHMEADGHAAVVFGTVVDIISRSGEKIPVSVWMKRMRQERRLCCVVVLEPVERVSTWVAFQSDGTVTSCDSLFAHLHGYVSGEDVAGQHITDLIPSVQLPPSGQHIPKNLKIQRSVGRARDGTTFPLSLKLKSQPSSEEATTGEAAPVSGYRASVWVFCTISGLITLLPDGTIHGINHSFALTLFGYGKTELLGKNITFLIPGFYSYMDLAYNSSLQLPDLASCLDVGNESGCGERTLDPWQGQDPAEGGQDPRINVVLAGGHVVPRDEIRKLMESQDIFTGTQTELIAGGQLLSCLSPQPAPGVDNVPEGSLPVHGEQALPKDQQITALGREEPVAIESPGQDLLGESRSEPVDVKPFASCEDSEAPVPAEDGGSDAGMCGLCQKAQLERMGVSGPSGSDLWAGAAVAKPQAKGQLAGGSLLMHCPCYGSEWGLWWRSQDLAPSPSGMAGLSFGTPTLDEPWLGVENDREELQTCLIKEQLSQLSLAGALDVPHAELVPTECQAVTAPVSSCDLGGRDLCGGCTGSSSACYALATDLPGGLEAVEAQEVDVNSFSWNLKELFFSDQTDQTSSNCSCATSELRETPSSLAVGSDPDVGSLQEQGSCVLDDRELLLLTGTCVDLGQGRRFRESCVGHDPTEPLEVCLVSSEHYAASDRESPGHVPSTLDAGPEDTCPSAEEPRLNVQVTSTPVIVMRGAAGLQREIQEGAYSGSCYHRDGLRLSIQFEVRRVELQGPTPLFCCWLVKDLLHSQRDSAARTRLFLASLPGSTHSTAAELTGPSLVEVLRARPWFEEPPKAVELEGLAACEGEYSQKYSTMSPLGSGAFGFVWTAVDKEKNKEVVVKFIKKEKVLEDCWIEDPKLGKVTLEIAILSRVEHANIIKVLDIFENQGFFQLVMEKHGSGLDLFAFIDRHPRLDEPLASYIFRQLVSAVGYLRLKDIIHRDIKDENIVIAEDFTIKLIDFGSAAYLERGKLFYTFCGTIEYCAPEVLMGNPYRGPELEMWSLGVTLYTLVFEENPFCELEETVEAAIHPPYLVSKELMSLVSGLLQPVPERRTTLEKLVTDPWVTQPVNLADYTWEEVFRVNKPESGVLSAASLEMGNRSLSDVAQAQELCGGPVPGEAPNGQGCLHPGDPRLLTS"}
{"data": "Block 1", "target": "Bromodomain-containing protein 4, BD1 (BRD4, Homo sapiens, UniProt O60885)", "concentration": "50 µM"}
{"Compound": "O=C(O)c1ccc(-c2c[nH]c3ncc(-c4ccccc4)cc23)cc1C1CCCC1", "inhibition [%]": 7.35}
{"Compound": "CN(C)S(=O)(=O)c1ccc2c(c1)/C(=C/c1cc3c([nH]1)CCCC3)C(=O)N2", "inhibition [%]": 61}
{"Compound": "Oc1cccc(-c2nc(N3CCOCC3)c3oc4ncccc4c3n2)c1", "inhibition [%]": 1.75}
{"Compound": "CCn1c(C(=O)N(C2CC2)C2CC2)cc2c3c(ncn3C)c(Nc3cc(C)n(C)n3)nc21", "inhibition [%]": -1.8}
{"Compound": "CC(=O)c1c(C)c2cnc(Nc3ccc(N4CCNCC4)cn3)nc2n(C2CCCC2)c1=O", "inhibition [%]": 38.4}
{"Compound": "C#Cc1cccc(Nc2ncnc3cc4c(cc23)OCCOCCOCCO4)c1", "inhibition [%]": 1.05}
{"Compound": "Nc1nc(OCc2ccccc2)c2nc[nH]c2n1", "inhibition [%]": 31.9}
{"Compound": "CC(=O)Nc1cccc(-n2c(=O)n(C3CC3)c(=O)c3c(Nc4ccc(I)cc4F)n(C)c(=O)c(C)c32)c1", "inhibition [%]": 21}
{"Compound": "Cc1ccc(-n2nc(C(C)(C)C)cc2NC(=O)Nc2ccc(OCCN3CCOCC3)c3ccccc23)cc1", "inhibition [%]": 46.9}
{"Compound": "CCN(CC)CCCCNc1ncc2cc(-c3cc(OC)cc(OC)c3)c(NC(=O)NC(C)(C)C)nc2n1", "inhibition [%]": 4.95}
{"Compound": "Oc1c2ccccc2c2c3c(cccc13)N=N2", "inhibition [%]": 7.6}
{"Compound": "O=C(NCCCNc1nc(Nc2cccc(NC(=O)N3CCCC3)c2)ncc1I)c1cccs1", "inhibition [%]": 25.7}
{"data": "Block 2", "Structure (SMILES)": "C[C@@H](c1cccc(C#N)c1)n1cc(Cl)cc(C(N)=O)c1=N", "technique": "competition with immobilised ligand", "concentration": "1 µM"}
{"target": "CDK11A (Homo sapiens, UniProt Q9UQ88)", "test": "binding", "remaining binding [%]": 90}
{"target": "Tyrosine-protein kinase JAK2, JH1 (JAK2, Homo sapiens, UniProt O60674)", "test": "cell-free assay", "remaining binding [%]": 100}
{"target": "Receptor-type tyrosine-protein kinase FLT3, autoinhibited (FLT3, Homo sapiens, UniProt P36888)", "test": "cell-free assay", "remaining binding [%]": 92}
{"target": "RAF1 (Homo sapiens, UniProt P04049)", "test": "cell-free assay", "remaining binding [%]": 100}
{"target": "CLK1 (Homo sapiens, UniProt P49759)", "test": "cell-free assay", "remaining binding [%]": 100}
{"target": "LTK (Homo sapiens, UniProt P29376)", "test": "cell-free assay", "remaining binding [%]": 94}
{"target": "EPHA2 (Homo sapiens, UniProt P29317)", "test": "cell-free assay", "remaining binding [%]": 88}
{"target": "Tyrosine-protein kinase ABL1, phosphorylated (ABL1, Homo sapiens, UniProt P00519)", "test": "cell-free assay", "remaining binding [%]": 73}
{"target": "Ribosomal protein S6 kinase alpha-4, N-terminal kinase domain (RPS6KA4, Homo sapiens, UniProt O75676)", "test": "cell-free assay", "remaining binding [%]": 100}
{"target": "PIK3CA (Homo sapiens, UniProt P42336, C420R)", "test": "cell-free assay", "remaining binding [%]": 100}
{"target": "PNCK (Homo sapiens, UniProt Q6P2M8)", "test": "cell-free assay", "remaining binding [%]": 88}
{"target": "MAP4K4 (Homo sapiens, UniProt O95819)", "test": "cell-free assay", "remaining binding [%]": 89}
{"target": "DCLK1 (Homo sapiens, UniProt O15075)", "test": "cell-free assay", "remaining binding [%]": 98}
{"data": "Block 3", "SMILES": "COc1cc(C(=O)N2CCC(N3CCN(C)CC3)CC2)ccc1Nc1ncc2c(n1)N(C)c1ccccc1C(=O)N2C"}
{"tested on": "RSK3 domain 1 (mouse)", "test": "probe labelling, inhibitor, KiNativ ActivX ADP probe", "system": "mouse brain lysate", "conditions": "0.1 µM, Lys1 site peptide", "inhibition [%]": 9.8}
{"tested on": "CDK9 (mouse)", "test": "probe labelling, KiNativ, refers to: DMkAANVLITR peptide, LYS2 site", "system": "brain tissue lysate (mouse)", "conditions": "1 µM, together with: ATP acyl-phosphate probe", "inhibition [%]": -8.9}
{"tested on": "ULK3 mouse", "test": "KiNativ profiling", "system": "mouse brain lysate", "conditions": "0.1 µM, LYS2 site, together with: ADP acyl phosphate probe", "inhibition [%]": 7.1}
{"tested on": "NEK9 (mouse)", "test": "probe labelling, KiNativ, refers to: DIkTLNIFLTK peptide, LYS2 site", "system": "brain tissue lysate (mouse)", "conditions": "0.1 µM, together with: ATP acyl-phosphate probe", "inhibition [%]": 7.5}
{"tested on": "OSR1 (mouse)", "test": "KiNativ ADP probe", "system": "mouse brain tissue", "conditions": "0.1 µM, probe site LYS2", "inhibition [%]": -57.3}
{"tested on": "mouse FYN/SRC/YES", "test": "probe labelling, KiNativ ATP probe", "system": "mouse brain lysate", "conditions": "1 µM, activation loop site", "inhibition [%]": -12.6}
{"tested on": "MYLK", "test": "KiNativ ATP probe", "system": "mouse brain lysate", "conditions": "0.1 µM, LYS2 site", "inhibition [%]": -12.3}
{"tested on": "mouse ROCK1 and ROCK2", "test": "probe labelling, KiNativ ADP probe", "system": "mouse brain lysate", "conditions": "0.1 µM", "inhibition [%]": 2.7}
{"tested on": "FYN (human)", "test": "probe labelling, KiNativ ATP probe", "system": "human PBMC lysate", "conditions": "concentration not given, LYS1 labelled site", "inhibition [%]": 3.1}
{"tested on": "EGFR (mouse)", "test": "probe labelling, KiNativ, refers to: IPVAIkELR peptide, LYS1 site", "system": "brain tissue lysate (mouse)", "conditions": "1 µM, together with: ADP acyl-phosphate probe", "inhibition [%]": -7.7}
{"tested on": "STLK5 (mouse)", "test": "KiNativ ATP probe", "system": "mouse brain tissue", "conditions": "0.1 µM, probe site Lys2", "inhibition [%]": -14.3}
{"tested on": "human PBMC", "test": "probe labeling, inhibitor, KiNativ profiling", "system": "cell lysate", "conditions": "concentration not given, domain 1, LYS1 site, together with: ATP acyl-phosphate probe 0.1 µM", "inhibition [%]": 0.8}
{"tested on": "RSK3 domain 2 (mouse)", "test": "probe labelling, inhibitor, KiNativ ActivX ADP probe", "system": "mouse brain lysate", "conditions": "0.1 µM, Lys1 site peptide", "inhibition [%]": 8.4}
{"tested on": "mouse MAP3K5/MAP3K6/MAP3K7", "test": "probe labelling, KiNativ ADP probe", "system": "mouse brain lysate", "conditions": "1 µM, LYS1 site IAIkEIPER", "inhibition [%]": 6.6}
{"tested on": "MAP2K4 (mouse)", "test": "probe labelling, KiNativ, refers to: DIkPSNILLDR peptide, LYS2 site", "system": "brain tissue lysate (mouse)", "conditions": "1 µM, together with: ATP acyl-phosphate probe", "inhibition [%]": -11.5}
{"tested on": "LRRK2", "test": "KiNativ ADP probe", "system": "mouse brain lysate", "conditions": "0.1 µM, LYS1 site", "inhibition [%]": -28.7}
{"data": "Block 4", "SMILES": "O=C1Nc2ccc(Br)cc2/C1=C/c1cc2c([nH]1)CCCC2", "observed": "enzyme activity", "action": "inhibitor", "concentration": "0.5 µM", "reference": "control"}
{"target": "AKT1 (Homo sapiens, UniProt P31749)", "remaining activity": "99.8%"}
{"target": "Insulin receptor (INSR, Homo sapiens, UniProt P06213)", "remaining activity": "85.8%"}
{"target": "TAOK3 (Homo sapiens, UniProt Q9H2K8)", "remaining activity": "75.3%"}
{"target": "ITK (Homo sapiens, UniProt Q08881)", "remaining activity": "87.5%"}
{"target": "FYN (Homo sapiens, UniProt P06241)", "remaining activity": "87.5%"}
{"target": "SRC (Homo sapiens, UniProt P12931)", "remaining activity": "88.8%"}
{"target": "FGR (Homo sapiens, UniProt P09769)", "remaining activity": "67.7%"}
{"target": "CDC42BPA (Homo sapiens, UniProt Q5VT25)", "remaining activity": "81.9%"}
{"target": "STK25 (Homo sapiens, UniProt O00506)", "remaining activity": "102%"}
{"target": "PASK (Homo sapiens, UniProt Q96RG2)", "remaining activity": "98.9%"}
{"target": "HIPK1 (Homo sapiens, UniProt Q86Z02)", "remaining activity": "97.2%"}
{"target": "ALK (Homo sapiens, UniProt Q9UM73)", "remaining activity": "88.5%"}
{"target": "Cyclin-dependent kinase 3, with cyclin E (CDK3, Homo sapiens, UniProt Q00526)", "remaining activity": "93.2%"}
{"target": "MARK3 (Homo sapiens, UniProt P27448)", "remaining activity": "84.9%"}
{"target": "LIM domain kinase 1 (LIMK1, Homo sapiens, UniProt P53667)", "remaining activity": "83%"}
{"target": "PRKX (Homo sapiens, UniProt P51817)", "remaining activity": "97.2%"}
{"target": "FLT4 (Homo sapiens, UniProt P35916)", "remaining activity": "56.1%"}
{"target": "FER (Homo sapiens, UniProt P16591)", "remaining activity": "74.7%"}
{"target": "NEK11 (Homo sapiens, UniProt Q8NG66)", "remaining activity": "111%"}
{"target": "PKN1 (Homo sapiens, UniProt Q16512)", "remaining activity": "91.7%"}
{"target": "MATK (Homo sapiens, UniProt P42679)", "remaining activity": "94.2%"}
{"note": "A few entries again (block 2):"}
{"target": "CLK1 (Homo sapiens, UniProt P49759)", "test": "cell-free assay", "remaining binding [%]": 100}
{"target": "CDK11A (Homo sapiens, UniProt Q9UQ88)", "test": "binding", "remaining binding [%]": 90}
{"target": "MAP4K4 (Homo sapiens, UniProt O95819)", "test": "cell-free assay", "remaining binding [%]": 89}
{"target": "LTK (Homo sapiens, UniProt P29376)", "test": "cell-free assay", "remaining binding [%]": 94}
